Experimental data of several laboratories.
Every numbered part comes from another study and shows a few of its results, in no order.

Sample 1
Target: Ras GTPase-activating protein-binding protein 1, full length (G3BP1, Homo sapiens, UniProt Q13283)
Sequence of UniProt Q13283 (whole entry, looked up): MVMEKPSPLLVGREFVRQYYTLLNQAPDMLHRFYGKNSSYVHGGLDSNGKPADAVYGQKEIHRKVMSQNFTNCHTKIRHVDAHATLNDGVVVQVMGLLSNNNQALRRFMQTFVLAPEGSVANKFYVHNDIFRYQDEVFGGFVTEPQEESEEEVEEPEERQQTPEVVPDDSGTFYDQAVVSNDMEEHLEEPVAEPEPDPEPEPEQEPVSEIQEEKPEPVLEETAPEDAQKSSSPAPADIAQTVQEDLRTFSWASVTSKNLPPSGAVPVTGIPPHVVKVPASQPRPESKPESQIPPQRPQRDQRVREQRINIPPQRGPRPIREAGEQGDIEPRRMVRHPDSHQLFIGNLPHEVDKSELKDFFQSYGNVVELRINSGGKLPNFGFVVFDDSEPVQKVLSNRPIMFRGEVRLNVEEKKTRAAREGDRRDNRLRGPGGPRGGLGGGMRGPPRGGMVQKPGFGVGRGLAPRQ
Method: RNA Bind-n-Seq
Form: RNA
Matrix: in vitro
Concentration: 200 nM
Setting: whole 134-nt RNA, ends assumed
Together with: 150 mM KCl
Baseline: input library
Direction: higher = stronger binding
All sequences stand within: GGGAGUUCUACAGUCCGACGAUC … UGGAAUUCUCGGGUGUCAAGG
`UGGGAGGUGGAUUUUGUUUAAUUUUUUAGCUCAUUUCCAGGGGUGGGAAUUUUUUUUUAAUAUGUGUCAUGAAUAAAGUUGUUUUUGAAA` gave a log2 enrichment of 0.166.
With `AGUCCUGUGCUACACAUCGUAUGUACCGAAUCGGGGAAAAAGGGAAAAAGGAAAAAGGAAAGUAUUAUGUUACGCCGUUCGGAUCUGCAC` the log2 enrichment was -0.704.
`CCUGUGCUACACAUCGUAUGUACCGAAUCGGGCCCCCCCGGCCCCCCCGGGGCCCCCCCGGAAAGUAUUAUGUUACGCCGUUCGGAUCUG` has a log2 enrichment of -0.0598.
The log2 enrichment of `UGUGUCUUGCUGAAUCAGGGCUCUCUUAUCCCUGCCAUCGACUUACAGUGGGAAGAAGAUCUUCACCUGCACAGACCCGGGAACAGUCGG` is reported as -0.327.
`ACCAUGCAGGUAAACAUCUUUGGGAAGUGGGGCAAGGGGGGGAUAGGGAGGGGGGUAACACUUUGGGAACAGGUGGUCCCAGGUCGUUUC` gave a log2 enrichment of 1.22.

Sample 2
Target: Sal-like protein 4, full length isoform A (SALL4, Homo sapiens, UniProt Q9UJQ4, residues 1-1053)
Sequence of UniProt Q9UJQ4 (whole entry, looked up): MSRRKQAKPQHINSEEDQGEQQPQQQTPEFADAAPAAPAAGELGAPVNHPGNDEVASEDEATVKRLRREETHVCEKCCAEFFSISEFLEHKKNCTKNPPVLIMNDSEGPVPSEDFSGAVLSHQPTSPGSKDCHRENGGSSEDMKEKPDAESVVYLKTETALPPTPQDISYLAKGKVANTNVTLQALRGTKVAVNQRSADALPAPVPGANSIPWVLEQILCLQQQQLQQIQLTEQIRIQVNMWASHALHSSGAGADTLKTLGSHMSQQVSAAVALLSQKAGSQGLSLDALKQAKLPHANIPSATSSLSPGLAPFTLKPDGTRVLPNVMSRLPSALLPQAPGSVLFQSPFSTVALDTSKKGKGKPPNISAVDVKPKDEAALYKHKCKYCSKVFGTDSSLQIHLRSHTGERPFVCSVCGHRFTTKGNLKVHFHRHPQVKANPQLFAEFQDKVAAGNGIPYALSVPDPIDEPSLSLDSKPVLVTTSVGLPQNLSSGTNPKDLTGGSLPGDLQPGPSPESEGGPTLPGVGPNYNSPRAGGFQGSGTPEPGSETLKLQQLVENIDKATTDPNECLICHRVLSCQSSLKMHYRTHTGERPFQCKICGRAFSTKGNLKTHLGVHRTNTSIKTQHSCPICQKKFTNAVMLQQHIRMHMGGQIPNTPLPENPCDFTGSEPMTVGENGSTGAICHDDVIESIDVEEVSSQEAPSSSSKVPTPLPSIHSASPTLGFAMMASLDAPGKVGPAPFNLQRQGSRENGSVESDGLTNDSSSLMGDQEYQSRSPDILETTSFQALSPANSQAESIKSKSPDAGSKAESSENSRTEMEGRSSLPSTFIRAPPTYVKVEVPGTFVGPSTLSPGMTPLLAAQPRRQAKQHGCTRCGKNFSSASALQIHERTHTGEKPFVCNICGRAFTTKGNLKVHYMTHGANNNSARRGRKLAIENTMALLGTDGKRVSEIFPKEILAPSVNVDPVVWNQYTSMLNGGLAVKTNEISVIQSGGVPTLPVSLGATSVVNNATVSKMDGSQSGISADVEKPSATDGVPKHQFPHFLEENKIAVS
Method: universal PBM
Form: double-stranded DNA, one strand shown
Matrix: in vitro
Concentration: 600 nM
Setting: 8-mer, flanks averaged, mean of replicates
Direction: higher = stronger binding
With `CAGCATGA` the E-score was -0.0732.
With `ATCAATCC` the E-score was 0.087.
`AGAACGTG` gave an E-score of -0.126.
For `ACTTAATA`, the E-score was 0.353.
`AGTCTCCG` has an E-score of -0.136.
For `GCGGACAA`, the E-score was -0.0144.
`AACACAGC` has an E-score of 0.1.
For `ATCGCACC`, the E-score was -0.102.

Sample 3
Target: RING finger protein unkempt homolog, zinc fingers 1-6, GST-SBP tag (UNK, Homo sapiens, UniProt Q9C0B0, residues 30-357)
Sequence of UniProt Q9C0B0 (30-357, looked up): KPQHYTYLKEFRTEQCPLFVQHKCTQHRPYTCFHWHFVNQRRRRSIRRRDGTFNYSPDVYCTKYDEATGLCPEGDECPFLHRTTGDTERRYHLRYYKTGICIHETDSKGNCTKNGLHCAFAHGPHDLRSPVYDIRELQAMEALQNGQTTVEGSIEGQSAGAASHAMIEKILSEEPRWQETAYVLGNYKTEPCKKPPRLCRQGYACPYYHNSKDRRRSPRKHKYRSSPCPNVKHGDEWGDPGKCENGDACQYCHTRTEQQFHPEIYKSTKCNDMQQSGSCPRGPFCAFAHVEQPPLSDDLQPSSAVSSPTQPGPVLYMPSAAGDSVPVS
Method: RNA Bind-n-Seq
Form: RNA
Matrix: in vitro
Concentration: not given
Setting: RNA with constant flanks, human-mouse chimeric sites, ends assumed
Baseline: input RNA pool
Direction: higher = stronger binding
For `GGGAGUUCUACAGUCCGACGAUCGGGGAGAAACCUUACGAGUGUGUGCAGUGUGGGAAAUCGUAUAGUCAGAGCUCAAACCUCUUCAGACAUCAGAGACGACACAAUGCAGAAAAACUUUUGAAUGUUGUGAAAGUUUAAGAACAACAGAGGAUUGAGCAUCA`, the bound/input enrichment was 0.888 ratio.
`GGGAGUUCUACAGUCCGACGAUCGAAACAUUUAAAUUUAAAGAAGCUGUUGUUCUAGGAAGUACGGACUUUCUAGAAGAUGAUAUAGAGAAAAUUGUAGAAGAACUGGGGAAAGAAUACAAAGGCAAUGCCUACCAUCUGAUGCAACAGAGGAUUGAGCAUCA` gave a bound/input enrichment of 1.13 ratio.
For `GGGAGUUCUACAGUCCGACGAUCGGACAUCUGUCAAAUUGUUAUGUUCCUAAAAACGUAGUGAGCACUUUGAUACACUUCAUCUGCUUGUACAUCUGUAUGAUAGAGAAAUGUAAAUAUGUUAAUCCAAGCAAUGUGUCACUUCAACAGAGGAUUGAGCAUCA`, the bound/input enrichment was 0.307 ratio.
For `GGGAGUUCUACAGUCCGACGAUCGUUGCCAGGUUCCGGUGCCGUUGGGCUCGGUUCUCUCCUGAGCUACGGUCCCUGGCACUCUCAAUCCGCCAUCCAACAAACAUGGAUCAGGUAAUGCAGUUUGUGGAGCCCAGCCGGCAGCAACAGAGGAUUGAGCAUCA`, the bound/input enrichment was 0.123 ratio.

Other studies, line by line
For `PhoQ, residues 284 288 289 292 302 303 SMYGEC`, the fold induction was 9.83 (PhoP, residues 12 14 15 18 19 NHFIF (Escherichia coli, UniProt P23836); Sort-seq, measured: YFP reporter; E. coli; PhoQ-PhoP variant library, together with: 10 µM Mg2+; baseline: high Mg2+ state, higher = stronger signaling).

Excerpt of the above (sample 2):
`AGAACGTG` gave an E-score of -0.126.
For `ACTTAATA`, the E-score was 0.353.
